Results pooled from the literature.
Cell line: BT-549

CCOc1cncc(-c2ccc(NC(=O)C3(c4ccnc(NS(=O)(=O)C5CC5)n4)CCOCC3)nc2)n1 — IC50 (cell growth or viability, ATP luminescence; 72 h): 10000 nM
CN(C)CCN1CCN(c2ccc3nc(-c4ccc5nc(-c6ccc(C(F)(F)F)cc6)[nH]c5c4)[nH]c3c2)CC1 — growth percent (SRB; 10 µM, 48 h): 86.2%
CNS(=O)(=O)Nc1nccc(Cc2c(C)c3ccc(Oc4ncccc4F)cc3oc2=O)c1F — IC50 (cell viability; 7 days): > 1000 nM
C1=[N+]2CCCC[N+]3=Cc4ccc5[n]4[Au-]23[n]2c1ccc2-c1nc2ccccc2nc1-5.F[P-](F)(F)(F)(F)F — TGI (NCI60 five-dose screen): 5.46 -log M
COC(=O)N1c2ccc3c(nc(Cc4ccccc4)n3[C@@H]3CCC[C@@H](C(=O)O)C3)c2CC[C@@H]1C — IC50 (cell growth or viability, ATP luminescence; 10 days): 2300 nM
CC(C)c1ccc(N(C)c2ccc3c(c2)OCC[C@H]3CNc2cnccc2C(=O)O)cc1 — IC50 (cell viability, CellTiter-Glo; 7 days): 9.98 nM
Cc1cc([C@H](C(=O)N2C[C@H](O)C[C@H]2C(=O)N[C@@H](CC(=O)N2CCC(N3CCC(C#Cc4ccc(C(=O)N[C@H]5C(C)(C)[C@H](Oc6ccc(C#N)c(Cl)c6)C5(C)C)cc4)CC3)CC2)c2ccc(-c3scnc3C)cc2)C(C)C)on1 — IC50 (cell growth or viability, CCK-8; 7 days): 150 nM
Oc1cccc2c1[nH]c1c(C3=CC4(O)CCC=CCCCCN5CCC3C3(CC6C=CCCCCN6C43)C5)nccc12 (single isomer, unassigned; (+)) — IC50 (cell growth or viability, neutral red; 48 h): 0.75 µg/mL
CC1(C)[C@H](NC(=O)c2cnn(CCO)c2)C(C)(C)[C@H]1Oc1ccc(C#N)c(Cl)c1 — IC50 (cell growth or viability, CCK-8; 7 days): > 10000 nM
Cc1ccc([N+](=O)[O-])cc1S(=O)(=O)N(C)/N=C/c1cnc2ccc(Br)cn12 — IC50 (cell growth or viability): < 1 nM

For quick reference, copied from above:
Cc1cc([C@H](C(=O)N2C[C@H](O)C[C@H]2C(=O)N[C@@H](CC(=O)N2CCC(N3CCC(C#Cc4ccc(C(=O)N[C@H]5C(C)(C)[C@H](Oc6ccc(C#N)c(Cl)c6)C5(C)C)cc4)CC3)CC2)c2ccc(-c3scnc3C)cc2)C(C)C)on1 — IC50 (cell growth or viability, CCK-8; 7 days): 150 nM
